# Measured values of several laboratories.
Compound,species,medium,route,dose,time,notes,Tmax [h]
CC(C)(CCCC/C=C/CCCCCC(C)(C)C(=O)O)C(=O)O,beagle dog,plasma,oral,5 mg/kg,,,0.25
Cc1ccc2c(n1)c(-c1cccc(S(C)(=O)=O)c1)c(C)n2C/C(F)=C/CN,healthy male volunteers,plasma,oral,dose not given,day 1,multiple ascending dose,3
CC[C@H](C)C(=O)N1CCC(NC(=O)Nc2ccc(OC(F)(F)F)c(F)c2)CC1,human,plasma,oral,8 mg,,"single dose, fasted",4.25
CC[C@@H]1C[C@]1(NC(=O)[C@@H]1C[C@@]2(CN1C(=O)[C@@H](NC(=O)[C@@H](NC(=O)[C@@H]1CCCCN1C(C)C)C1CCCCC1)C(C)(C)C)C(C)(C)C21CCC1)C(=O)NS(=O)(=O)N1CCCC1,human,plasma,oral,100 mg,,"single dose, fed",~2
COc1cc(NC(=O)C(=O)c2c(C)n(Cc3ccc(Cl)cc3)c3ccc(C)cc23)ccn1,female cynomolgus monkey,plasma,oral,10 mg/kg,,,3.5
[2H]C([2H])([2H])C([2H])([2H])C([2H])([2H])OC(C(=O)OC1CCNCC1)(c1ccccc1)c1ccccc1,male human,plasma,oral,15 mg,,multiple doses,3.4
C[C@H](CCC(=O)N[C@@H](CCCCNC(=O)C(F)(F)F)C(=O)O)[C@H]1CC[C@H]2[C@@H]3[C@H](O)C[C@@H]4C[C@H](O)CC[C@]4(C)[C@H]3C[C@H](O)[C@]12C,C57BL/6J mice,liver,oral,50 mg/kg,,,1
CSCC[C@H](NC(=O)CNC(=O)[C@H](CC(=O)O)NC(=O)[C@@H](NC(=O)[C@@H](NC(=O)[C@@H](NC(=O)CNC(=O)[C@H](CCC(N)=O)NC(=O)[C@H](CCSC)NC(=O)[C@H](CC(=O)O)NC(=O)[C@H](C)NC(=O)[C@H](C)NC(=O)[C@@H](NC(=O)[C@H](CO)NC(=O)[C@@H](N)CC(C)C)[C@@H](C)O)C(C)C)C(C)C)[C@@H](C)O)C(=O)N[C@@H](C)C(=O)N[C@@H](CO)C(=O)NCC(=O)N[C@@H](CC(C)C)C(=O)N[C@@H](CC(=O)O)C(=O)N[C@@H](CCCCN)C(=O)N[C@@H](CC(=O)O)C(=O)N[C@@H](Cc1ccc(O)cc1)C(=O)N[C@@H](CC(C)C)C(=O)N[C@@H](CCCCN)C(=O)N1CCC[C@H]1C(=O)N[C@@H](CC(=O)O)C(=O)N[C@@H](CC(=O)O)C(=O)O,human,serum,intravenous,0.83 mg/kg,,"patients, infusion",0.17

# A few entries again:
Compound,species,medium,route,dose,time,notes,Tmax [h]
[2H]C([2H])([2H])C([2H])([2H])C([2H])([2H])OC(C(=O)OC1CCNCC1)(c1ccccc1)c1ccccc1,male human,plasma,oral,15 mg,,multiple doses,3.4
